Experimental data collected from several papers.
Numbers after ± are the reported error.
B1: enzyme A172S/A173G/C179K/M174T/Q178P (Streptomyces platensis, UniProt A0A0A0V031); chain MQHTTIGDVLREHRRSHPGRTALVDGPVRLTWPELDDRVNRLAGSLAASGIGRGDRIMWLGQNSFRVYELIAAAGKLGAMVCVGYWRWAPPEMEFALRDFDPHLVVWQHQEIHETVARTREALGSDDTARWLRHDSAPQDPDGYEAFLAAGGLADPDLDIDPDSPVLVLYTSGTSGRPKGSLLSHTNLIAMATAAAWLGDIDHTTAFLNSGPMFHIGNHQFWGMPTLLMAGKNVIVRRVVAEEVRDLLVAEECTHAFLMPPTVAEIVRLNRDTGHDLSRLRATVAPHLWEGMATTDTSRFTRSGAAAGRGYGQTELSGFAVTAAYGGPAAGNAGRPGPGLTVRVLDTAGRECAVGEAGEICARGTVVHRGYWNRDEVNAHRFRSGWWHTTDLGRREPDGSLTFLGTTTRMLKSAAENIFPAEVENCIEQHPAVREAAVIGVPNTRWAQDVKAVVVLEPDAGVSEQEIIDHCRPRIASYKKPKSVAFAAALPRTVSGARDYDALDKEYGGGGYPGAATLGPGR
B2: dmaW (Aspergillus fumigatus, UniProt Q50EL0); chain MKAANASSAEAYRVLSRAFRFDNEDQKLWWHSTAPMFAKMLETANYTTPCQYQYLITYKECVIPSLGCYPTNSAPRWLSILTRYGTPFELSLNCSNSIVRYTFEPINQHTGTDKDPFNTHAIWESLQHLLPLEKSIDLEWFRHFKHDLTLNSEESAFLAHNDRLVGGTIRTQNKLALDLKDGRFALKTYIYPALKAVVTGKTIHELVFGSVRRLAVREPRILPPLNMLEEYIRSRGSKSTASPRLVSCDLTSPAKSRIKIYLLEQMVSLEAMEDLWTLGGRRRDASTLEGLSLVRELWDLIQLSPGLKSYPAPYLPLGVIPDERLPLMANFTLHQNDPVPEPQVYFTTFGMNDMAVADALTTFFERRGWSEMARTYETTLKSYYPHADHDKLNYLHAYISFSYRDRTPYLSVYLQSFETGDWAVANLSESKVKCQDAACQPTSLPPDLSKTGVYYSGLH
UniProt P21729, sequence (whole entry, looked up): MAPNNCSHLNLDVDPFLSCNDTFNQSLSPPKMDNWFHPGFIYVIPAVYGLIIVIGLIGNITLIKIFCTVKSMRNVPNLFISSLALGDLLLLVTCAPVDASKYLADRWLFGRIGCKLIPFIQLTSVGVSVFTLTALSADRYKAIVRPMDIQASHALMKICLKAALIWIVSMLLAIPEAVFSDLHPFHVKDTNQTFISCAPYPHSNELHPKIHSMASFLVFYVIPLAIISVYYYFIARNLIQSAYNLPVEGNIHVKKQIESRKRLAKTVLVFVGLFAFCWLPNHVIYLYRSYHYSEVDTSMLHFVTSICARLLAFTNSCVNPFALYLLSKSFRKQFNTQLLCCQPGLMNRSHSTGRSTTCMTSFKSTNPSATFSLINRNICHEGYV

N=C(N)NCCC[C@@H]1NC(=O)[C@H](CCCCNC(=O)CCOCCOCCOCCOCCNC(=O)CC[C@H](NC(=O)CCOCCOCCOCCOCCNC(=O)CC[C@H](NC(=O)CN2CCN(CC(=O)O)CCN(CC(=O)O)CCN(CC(=O)O)CC2)C(=O)NCCOCCOCCOCCOCCC(=O)N[C@@H](CCC(=O)NCCOCCOCCOCCOCCC(=O)NCCCC[C@@H]2NC(=O)[C@@H](Cc3ccccc3)NC(=O)[C@H](CC(=O)O)NC(=O)CNC(=O)[C@H](CCCNC(=N)N)NC2=O)C(=O)NCCOCCOCCOCCOCCC(=O)NCCCC[C@@H]2NC(=O)[C@@H](Cc3ccccc3)NC(=O)[C@H](CC(=O)O)NC(=O)CNC(=O)[C@H](CCCNC(=N)N)NC2=O)C(=O)NCCOCCOCCOCCOCCC(=O)NCCCC[C@@H]2NC(=O)[C@@H](Cc3ccccc3)NC(=O)[C@H](CC(=O)O)NC(=O)CNC(=O)[C@H](CCCNC(=N)N)NC2=O)NC(=O)[C@@H](Cc2ccccc2)NC(=O)[C@H](CC(=O)O)NC(=O)CNC1=O [indium-111 labelled]  tissue uptake (female athymic nude mice, eyes; intravenous, 3 µCi, 1 h, U-87 MG glioma xenograft): 1.4 %ID/g
B1  kcat/Km (C[C@@]12CCC[C@@](C)(C(=O)OP(=O)(O)OC[C@H]3O[C@@H](n4cnc5c(N)ncnc54)[C@H](O)[C@@H]3O)[C@H]1C[C@@H](O)[C@]13C[C@H]4C[C@H](O[C@@]4(C)C1)[C@@H]23; steady-state kinetics; pH 7.8, 25 °C): 1.7e+07 M⁻¹ s⁻¹
CCCNC(=O)[C@H](CC(C)C)NC(=O)[C@H](Cc1c[nH]cn1)NC(=O)CNC(=O)[C@@H](NC(=O)[C@H](C)NC(=O)[C@H](Cc1c[nH]c2ccccc12)NC(=O)[C@H](CCC(N)=O)NC(=O)[C@@H](Cc1ccccc1)NC(=O)CCCCCNC(=O)CN1CCN(CC(=O)O)CCN(CC(=O)O)CCN(CC(=O)O)CC1)C(C)C [indium-111 labelled]  tissue uptake (Gastrin-releasing peptide receptor (Mus musculus, UniProt P21729); CF-1 mice, small intestine; intravenous, dose not given, 1 h, together with: bombesin 100 µg (blocking)): 0.69 ± 0.11 %ID/g
C[C@H]1COc2c(N3CCN(C)CC3)c(F)cc3c(=O)c(C(=O)N[C@@H](CCCNC(=N)N)C(=O)N[C@@H](Cc4ccc(-c5ccccc5)cc4)C(=O)N[C@@H](CCCNC(=N)N)C(=O)N[C@@H](Cc4ccc(-c5ccccc5)cc4)C(=O)N[C@@H](CCCNC(=N)N)C(N)=O)cn1c23  hemolysis (human erythrocytes; 50 µM, 1 h, 37 °C; relative to: Triton X-100): 1.27 ± 0.014%
N=C(N)NCCC[C@@H]1NC(=O)[C@H](CCCCNC(=O)CC[C@H](NC(=O)CCOCCOCCOCCOCCNC(=O)CN2CCN(CC(=O)O)CCN(CC(=O)O)CCN(CC(=O)O)CC2)C(=O)NCCCC[C@@H]2NC(=O)[C@@H](Cc3ccccc3)NC(=O)[C@H](CC(=O)O)NC(=O)CNC(=O)[C@H](CCCNC(=N)N)NC2=O)NC(=O)[C@@H](Cc2ccccc2)NC(=O)[C@H](CC(=O)O)NC(=O)CNC1=O [indium-111 labelled]  tissue uptake (female athymic nude mice, liver; intravenous, 3 µCi, 0.5 h, U-87 MG glioma xenograft): 2.84 ± 0.36 %ID/g
CCCC[C@H](NC(=O)CNC(=O)CNC(=O)c1ccc(NN)nc1)C(=O)N[C@H]1CC(=O)NCCCC[C@@H](C(N)=O)NC(=O)[C@H](Cc2c[nH]c3ccccc23)NC(=O)[C@H](CCCNC(=N)N)NC(=O)[C@@H](Cc2ccccc2)NC(=O)[C@H](Cc2c[nH]cn2)NC1=O [technetium-99m labelled]  uptake (C57 mouse, B16/F1 melanoma, stomach; 2 h, together with: L-lysine 12 mg): 0.63 ± 0.44 %ID/g
N=C(N)NCCC[C@@H]1NC(=O)[C@H](CCCCNC(=O)CNC(=O)CNC(=O)CNC(=O)CC[C@H](NC(=O)CCOCCOCCOCCOCCNC(=O)CC[C@H](NC(=O)CN2CCN(CC(=O)O)CCN(CC(=O)O)CCN(CC(=O)O)CC2)C(=O)NCCOCCOCCOCCOCCC(=O)N[C@@H](CCC(=O)NCC(=O)NCC(=O)NCC(=O)NCCCC[C@@H]2NC(=O)[C@@H](Cc3ccccc3)NC(=O)[C@H](CC(=O)O)NC(=O)CNC(=O)[C@H](CCCNC(=N)N)NC2=O)C(=O)NCC(=O)NCC(=O)NCC(=O)NCCCC[C@@H]2NC(=O)[C@@H](Cc3ccccc3)NC(=O)[C@H](CC(=O)O)NC(=O)CNC(=O)[C@H](CCCNC(=N)N)NC2=O)C(=O)NCC(=O)NCC(=O)NCC(=O)NCCCC[C@@H]2NC(=O)[C@@H](Cc3ccccc3)NC(=O)[C@H](CC(=O)O)NC(=O)CNC(=O)[C@H](CCCNC(=N)N)NC2=O)NC(=O)[C@@H](Cc2ccccc2)NC(=O)[C@H](CC(=O)O)NC(=O)CNC1=O [indium-111 labelled]  tumour to tissue ratio (athymic nude mice, female, U-87 MG glioma xenograft, tumour and blood; intravenous, 4 h; relative to: tumour over blood): 218 ± 44.6
B2 (dmaW)  kcat (C/C(Cl)=C/COP(=O)(O)OP(=O)(O)O; steady-state kinetics; pH 7.5, 35 °C): 0.0217 ± 0.00167 s⁻¹
C=Cc1c(C)c2cc3nc(c4c5[nH]c(cc6nc(cc1[nH]2)C(C)=C6CC)c(C)c5C(=O)C4)[C@@H](CCC(=O)NCC(=O)N1CCC[C@H]1C(=O)N[C@@H](CC(C)C)C(=O)NCC(=O)N[C@@H](Cc1ccccc1)C(=O)N[C@@H](CCCNC(=N)N)C(=O)N[C@H](C(=O)NCC(=O)N[C@@H](CCCCN)C(N)=O)C(C)C)[C@@H]3C  mean fluorescence intensity (OA patient chondrocytes; flow cytometry; 1 µM, 1 h; relative to: untreated): 12 ± 2 fold

Repeated from above:
B2 (dmaW)  kcat (C/C(Cl)=C/COP(=O)(O)OP(=O)(O)O; steady-state kinetics; pH 7.5, 35 °C): 0.0217 ± 0.00167 s⁻¹
